Measured values collected from several papers.
Lines come from different studies, so protocols differ. Values joined by “and” are separate records of one study, mostly repeats; a detail may differ. Numbers after ± are the reported error.

For `Cc1ncc2n1-c1ccc(Cl)cc1C(c1ccccc1F)=NC2`, the fraction unbound was 0.034 (rapid equilibrium dialysis; rat, 10% plasma; 2 µM, 24 h, pH 7.4).
The plasma concentration of `CCCc1cc(O)c2c(c1)OC(C)(C)[C@@H]1CCC(C)=C[C@@H]21` is reported as 81 ± 18 ng/mL (LC-MS/MS; Scn1a+/− mice, both sexes, plasma; intraperitoneal, 3 mg/kg, after hyperthermia protocol).
`O=C1c2c(O)c(=O)ccn2N([C@@H]2c3ccccc3SCc3c2ccc(F)c3F)[C@@H]2COCCN12` has a plasma concentration of 14.3 ng/mL (BALB/c mouse, plasma; oral, 50 mg/kg baloxavir marboxil every 12 h, 24 h).
For `CNC(C)Cc1ccc2c(c1)OCO2` (stereo not drawn), the fraction unbound was 83.5 ± 4.7% (rapid equilibrium dialysis; human plasma; mean over all concentrations).
`C#Cc1ccc2c(c1)C(c1ccccn1)=NCc1c(-c3cnco3)ncn1-2.Cl` gave a solubility of 7220 µg/mL (shake flask; 50 mM phosphate buffer; 24 h, pH 3, 25 °C).
With `NC(=O)c1ncn([C@@H]2O[C@H](CO)[C@@H](O)[C@H]2O)n1` the CC50 was 8 µM (bovine cells).
Under “measured soil concentration”, `CN/C(=N\[N+](=O)[O-])NCc1cnc(Cl)s1` is recorded as 0.05 mg/kg dry soil (test soil; 0.12 mg/kg nominal, 28 days).
With `NC(=O)c1nc(F)c[nH]c1=O` the CC50 was > 400 µM (dog cells).
For `O=C(O)CCC(CP(=O)(O)O)C(=O)O` (stereo not drawn), the Cmax was 275000 ng/mL (Wistar rat, male, plasma; ip, 100 mg/kg).
`O=C1c2c(O)c(=O)ccn2N([C@@H]2c3ccccc3SCc3c2ccc(F)c3F)[C@@H]2COCCN12` gave a CC50 of 7.1 µM (dog cells).
`CCCCCCCCCCC(=O)O[C@H]1CC[C@H]2[C@@H]3CCC4=CC(=O)CC[C@]4(C)[C@H]3CC[C@]12C` has a testosterone level of 442 ng/dL (human male serum; 500 ng/mL, NaF 0.00 mg/mL, baseline testosterone 441 ng/dL).
`CCN(CC)C(=O)[C@@H]1C=C2c3cccc4[nH]cc(c34)C[C@H]2N(C)C1`: “List of Complaints score” 1 (refers to: abdominal pressure or fullness; healthy volunteers; dose not given, 12 to 24 h; reference: placebo, direction not given).
With `CC(C)(C)[C@H](NC(=O)C(F)(F)F)C(=O)N1C[C@H]2[C@@H]([C@H]1C(=O)N[C@H](C#N)C[C@@H]1CCNC1=O)C2(C)C` the intrinsic clearance was 31.1 mL/min/kg (human liver microsomes; scaled to liver).
With `COc1ccc2c(c1)[C@]13CCCC[C@@H]1[C@H](C2)N(C)CC3` the plasma concentration was 189 ng/mL and 611 ng/mL and 175 ng/mL and 444 ng/mL and 221 ng/mL (C57BL/6 mice, plasma; oral, 50 µg/g, 60 min).
`Cc1ncc2n1-c1ccc(Cl)cc1C(c1ccccc1F)=NC2` gave an AUCinf ratio of 83.8% (healthy human volunteers, plasma; oral, dose not given, CYP3A probe substrate, added: momelotinib; reference: compound alone).
The AUC of `Cc1nnc2n1-c1ccc(Cl)cc1C(c1ccccc1)=NC2` is reported as 565 ± 46.1 ng·h/mL (human, female; 2 mg, day 0).
Under “grade 3 influenza-like symptoms”, `COc1cc2c(Oc3ccc4[nH]c(C)cc4c3F)ccnc2cc1OCC1(N)CC1` is recorded as 0% (paediatric recurrent refractory sarcoma; 12 mg).
With `CCN(CC)CCOc1ccc2c(c1)C(=O)c1cc(OCCN(CC)CC)ccc1-2` the CC50 was 6.34 µM (African green monkey cells; 3 (unit not given)).

Repeated from above:
For `Cc1ncc2n1-c1ccc(Cl)cc1C(c1ccccc1F)=NC2`, the fraction unbound was 0.034 (rapid equilibrium dialysis; rat, 10% plasma; 2 µM, 24 h, pH 7.4).
For `CNC(C)Cc1ccc2c(c1)OCO2` (stereo not drawn), the fraction unbound was 83.5 ± 4.7% (rapid equilibrium dialysis; human plasma; mean over all concentrations).
With `NC(=O)c1ncn([C@@H]2O[C@H](CO)[C@@H](O)[C@H]2O)n1` the CC50 was 8 µM (bovine cells).
